Measurements of several laboratories.
Protocols differ between the studies behind these lines. pIC50: −log10 of the molar value.
Cell line: DU-145

The pIC50 of `O=[N+]([O-])c1ccc(/N=N/c2ccc(O)c(O)c2)cc1` is reported as 4.65 (cell growth or viability, resazurin; 72 h).
`O=C(N=P12CN3CN(CN(C3)C1)C2)c1cccc[c]1[Pd].O=C(N=P12CN3CN(CN(C3)C1)C2)c1cccc[c]1[Pd]([Br])[Br]` gave a pIC50 of 4.31 (cell growth or viability, MTT; 24 h).
With `C1=CCCC=CCC1.F[P-](F)(F)(F)(F)F.[Pt+][c]1ccccc1P(=Nc1ccccc1)(c1ccccc1)c1ccccc1` the pIC50 was 6.09 (cell growth or viability, MTT; 24 h).
`COc1ccc(C(c2c[nH]c3ccccc23)c2c[nH]c3ccccc23)cc1` has a pIC50 of 5.29 (cell growth or viability, MTT; 24 h).
The pIC50 of `Cl.[Cl][Ru-4]123([n+]4ccccc4-c4cc(-c5ccccc5)cc([n+]41)-c1cccc[n+]12)[n+]1ccc(-c2ccccc2)c2ccc4c(-c5ccccc5)cc[n+]3c4c21` is reported as 5.31 (cell growth or viability; 72 h, 3D culture).
The pIC50 of `CCOC(=O)C[C@H]1Oc2ccccc2C(=O)[C@]1(C)[N+](=O)[O-]` is reported as less than 4.30 (cell growth or viability, SRB; 96 h).
`Cc1ccc(C(C)C)cc1.O=C(N=P12CN3CN(CN(C3)C1)C2)c1[c-]cccc1.[Cl-].[Ru+2]` has a pIC50 of 3.90 (cell growth or viability, MTT; 24 h).
`O=C1c2cccc[c]2[Au-]([Cl])([Cl])[N+]1=P(c1ccccc1)(c1ccccc1)c1ccccc1` gave a pIC50 of 4.40 (cell growth or viability, MTT; 24 h).
For `COc1cc(C(=O)NC2CCC(N3CCN(CC4CCC(C)C4)CC3)CC2)c(F)cc1Nc1ncc2c(n1)N(C1CCCC1(F)F)CC(F)(F)C(=O)N2C` (stereo not shown), the pIC50 was 9.64 (cell growth or viability, MTT; 72 h).
The pIC50 of `O=C(/C=C/C=C/c1ccccc1)c1ccccc1OCc1cc(F)cc(F)c1` is reported as 4.33 (cell growth or viability, MTT; 48 h).
The pIC50 of `COC(=O)[C@@H](NC(=O)[C@@H](NC(=O)OC(C)(C)C)C(C)C)C(C)C` is reported as 5.30 (cell growth or viability, SRB).
`COC(=O)[C@H]1CC[C@H](NC(=O)C[C@H]2Oc3ccccc3C(=O)[C@]2(C)[N+](=O)[O-])CC1` gave a pIC50 of 4.84 (cell growth or viability, SRB; 96 h).
For `CCC(CC)c1nc(-c2ccc(O)cc2O)cs1`, the pIC50 was 5.06 (cell growth or viability, resazurin; 72 h).
For `CC(=O)C=C(C)[O][Pd][c]1ccccc1C(=O)N=P12CN3CN(CN(C3)C1)C2`, the pIC50 was 4.02 (cell growth or viability, MTT; 24 h).
`COc1cc(C(=O)NC2CCC(N3CCN(C[C@H]4CC4(F)F)CC3)CC2)c(F)cc1Nc1ncc2c(n1)N([C@H]1CCCC1(F)F)CC(F)(F)C(=O)N2C` (stereo partly shown) gave a pIC50 of 9.33 (cell growth or viability, MTT; 72 h).
For `O=[N+]([O-])c1ccc(C(c2c(-c3ccccc3)[nH]c3ccccc23)c2c(-c3ccccc3)[nH]c3ccccc23)cc1`, the pIC50 was 4.04 (cell growth or viability, MTT; 24 h).
The pIC50 of `O=C(Nc1ccccc1)c1ccccc1-n1c(=O)[nH]c2ccc(F)cc2c1=O` is reported as 4.94 (cell growth or viability, MTT; 24 h).
`COC(=O)[C@H](C(C)C)N(C)C(=O)[C@@H]1CCCN1C(=O)[C@H](C)N(C)C(=O)OC(C)(C)C` has a pIC50 of 5.52 (cell growth or viability, SRB).
The pIC50 of `O=C(NCCc1ccccc1)c1ccccc1-n1c(=O)[nH]c2ccccc2c1=O` is reported as 4.96 (cell growth or viability, MTT; 24 h).
The pIC50 of `C[C@]1([N+](=O)[O-])C(=O)c2ccccc2O[C@@H]1CC(=O)O` is reported as less than 4.30 (cell growth or viability, SRB; 96 h).
`O=C(O)c1ccc([P+]([Au-][Cl])(c2ccccc2)c2ccccc2)cc1` has a pIC50 of 4.49 (cell viability, XTT; 24 h).
`COc1ccc(C(c2c[nH]c3ccc(OC)cc23)c2c[nH]c3ccc(OC)cc23)cc1` gave a pIC50 of 4.92 (cell growth or viability, MTT; 24 h).
`O=C1c2ccc(O)cc2OC1(O)Cc1ccc(O)c(O)c1` (stereo not shown) gave a pIC50 of less than 3.40 (cell growth or viability, MTT; 72 h).
`CC(=O)NCCOCCOCCOCCOCCOCCOCCOCCOCCC(=O)N[C@@H](CC(C)C)C(=O)N[C@@H](CC(C)C)C(=O)N[C@@H](CC(C)C)C(=O)N[C@@H](CC(C)C)C(=O)N[C@@H](CCCNC(=N)N)C(=O)N[C@H](C(=O)N[C@@H](CCCCN)C(=O)N[C@@H](CCCNC(=N)N)C(N)=O)C(C)C` has a pIC50 of less than 3.30 (cell growth or viability, MTT; 72 h).
The pIC50 of `COc1cc(C(=O)NC2CCC(N3CCN(C[C@H]4CC[C@](C)(C(F)(F)F)C4)CC3)CC2)c(F)cc1Nc1ncc2c(n1)N([C@H]1CCCC1(F)F)CC(F)(F)C(=O)N2C` (stereo partly shown) is reported as 9.74 (cell growth or viability, MTT; 72 h).
`COC(=O)[C@@H]1CCCN1C(=O)[C@H](Cc1ccccc1)NC(=O)OC(C)(C)C` has a pIC50 of 4.89 (cell growth or viability, SRB).
`C[C@]1([N+](=O)[O-])C(=O)c2ccccc2O[C@@H]1CC(=O)Oc1ccccc1` has a pIC50 of less than 4.30 (cell growth or viability, SRB; 96 h).
`Cc1ccc(C(C)C)cc1.F[P-](F)(F)(F)(F)F.O=C(N=P(c1ccccc1)(c1ccccc1)c1ccccc1)c1ccccn1.[Cl-].[Ru+2]` gave a pIC50 of 5.72 (cell growth or viability, MTT; 24 h).
`C[C@]1([N+](=O)[O-])C(=O)c2ccccc2O[C@@H]1CC(=O)OC12CC3CC(CC(C3)C1)C2` gave a pIC50 of 5.60 (cell growth or viability, SRB; 96 h).
`O=C([O][Ti+2][O]C(=O)c1ccc([P+]([Au-][Cl])(c2ccccc2)c2ccccc2)cc1)c1ccc([P+]([Au-][Cl])(c2ccccc2)c2ccccc2)cc1.c1cc[cH-]c1.c1cc[cH-]c1` gave a pIC50 of 4.48 (cell viability, XTT; 24 h).
For `Cc1ccc(C(C)C)cc1.O=C(N=P(c1ccccc1)(c1ccccc1)c1ccccc1)c1[c-]cccc1.[Cl-].[Ru+2]`, the pIC50 was 4.85 (cell growth or viability, MTT; 24 h).
